Experimental data collected from several papers.
Every numbered part comes from another study and shows a few of its results, in no order.

Set 1 — method: protein-binding microarray; molecule type: double-stranded DNA, one strand shown; sample: in vitro; tested at: 940 nM top; setting: 60-bp whole probe; together with: salmon DNA 0.4 mg/ml; baseline: random background probes; direction: higher = stronger binding; measurement: fitted relative affinity; constant ends, left off below: GCCTAGCAC … GTCTTGATTCGCTTGACGCTGCTG
Target: Interferon regulatory factor 5, full length, phosphomimetic (IRF5, Homo sapiens, UniProt Q13568-2, residues 1-514, S451D/S453D/S456D/S462D)
AAATCATTTTCTCTGTTCTAGTGCTAG: 1.45 z-score
TCACACTTGTGTTTGGGACTGTGCTAG: -0.0916 z-score
TTAGGTATAGGTATCGGTTAGTGCTAG: 3.85 z-score
TAAGGTCTCGGTCTCGGTTAGTGCTAG: 4.16 z-score
TCACCTTTTAATTTTTAACTGTGCTAG: 1.01 z-score
GGCGGTATCGACACTGGGGACGTGCTA: 3.8 z-score
CAGAGCATGGATCTGGGAACGTGCTAG: -0.85 z-score
TCAGCTACACATCTCACACTGTGCTAG: 0.236 z-score
GACGGTTTCCGTTTCCTGACGTGCTAG: 2.39 z-score
TTTGGTATCCTTTTCCTTTAGTGCTAG: 1.76 z-score
GAAGAACTGAGACTGGAGACGTGCTAG: -0.426 z-score
GACGAACTGAGTTTCGAAACGTGCTAG: 4.41 z-score
TTAGATATTGGGTTTCGATTAGTGCTA: 5.91 z-score
GACGGACTGGACTTTCGGGCCGTGCTA: -0.0695 z-score
TCATTTTTATTTTCTGAACTGTGCTAG: 1.4 z-score

Set 2 — method: universal PBM; molecule type: double-stranded DNA, one strand shown; sample: in vitro; tested at: 600 nM; direction: higher = stronger binding; measurement: E-score
Target: Sal-like protein 4, full length isoform A (SALL4, Homo sapiens, UniProt Q9UJQ4, residues 1-1053)
Sequence of UniProt Q9UJQ4 (whole entry, looked up): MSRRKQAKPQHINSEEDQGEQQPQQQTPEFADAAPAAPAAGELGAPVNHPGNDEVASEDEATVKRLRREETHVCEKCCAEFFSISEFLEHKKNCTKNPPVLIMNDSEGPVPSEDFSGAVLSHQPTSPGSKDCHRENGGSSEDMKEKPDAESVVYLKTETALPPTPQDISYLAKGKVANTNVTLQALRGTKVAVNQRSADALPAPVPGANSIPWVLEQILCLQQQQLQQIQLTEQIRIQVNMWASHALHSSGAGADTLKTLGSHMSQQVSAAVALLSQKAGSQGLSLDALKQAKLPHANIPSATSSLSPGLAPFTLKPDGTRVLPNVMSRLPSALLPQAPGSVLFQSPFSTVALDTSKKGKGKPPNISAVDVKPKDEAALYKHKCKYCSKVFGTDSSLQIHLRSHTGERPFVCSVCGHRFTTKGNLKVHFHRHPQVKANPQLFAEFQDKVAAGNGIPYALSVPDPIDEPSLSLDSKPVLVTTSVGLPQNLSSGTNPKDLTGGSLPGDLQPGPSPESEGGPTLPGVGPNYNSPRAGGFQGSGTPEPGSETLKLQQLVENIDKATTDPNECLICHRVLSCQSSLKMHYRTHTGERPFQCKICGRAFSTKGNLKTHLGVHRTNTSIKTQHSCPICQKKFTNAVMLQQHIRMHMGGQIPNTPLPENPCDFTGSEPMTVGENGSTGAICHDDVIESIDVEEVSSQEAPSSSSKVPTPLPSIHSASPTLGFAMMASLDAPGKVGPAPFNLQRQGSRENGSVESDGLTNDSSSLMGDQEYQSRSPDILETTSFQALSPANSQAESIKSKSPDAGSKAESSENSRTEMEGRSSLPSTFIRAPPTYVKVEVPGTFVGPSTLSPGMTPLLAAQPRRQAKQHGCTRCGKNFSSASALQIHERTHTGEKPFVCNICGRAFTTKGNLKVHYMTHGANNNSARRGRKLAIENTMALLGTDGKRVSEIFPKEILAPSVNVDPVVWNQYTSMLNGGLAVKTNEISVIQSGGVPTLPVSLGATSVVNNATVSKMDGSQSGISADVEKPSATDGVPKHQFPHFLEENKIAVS
Setting: 8-mer, flanks averaged, mean of replicates
TAGAATAA: 0.345
GGTATTAA: 0.179
AAATCTGA: 0.136
CGACCACG: -0.235
GTAGGCCA: -0.111
ATTTCTCC: 0.0825
TATCTTAA: 0.296
GTAAGTTA: 0.192
GGCACGCA: -0.259
CTCCGCTA: -0.043
CCTCACCA: -0.155
AATATGTC: 0.303
CCCGGTAC: -0.353
AGCATGCT: -0.136
GGAATCCA: -0.0783
AAATGACC: 0.0218
GGGCCGGA: -0.37
ATTAAATG: 0.292
AAGCATCA: 0.0453
ACATTCCC: 0.0821
GCGTTCAC: -0.0857
CTCCCGGC: -0.317
CCCGAGGA: -0.328
GCACAAGC: -0.0457
CACCTATC: 0.0194

Set 3 — method: protein binding microarray; molecule type: double-stranded DNA, one strand shown; sample: in vitro; tested at: not given; baseline: not given; direction: higher = stronger binding; measurement: E-score
Target: Histone acetyltransferase KAT6A, winged helix 2, GST fusion (KAT6A, Homo sapiens, UniProt Q92794, residues 85-181)
Setting: 8-mer, flanks averaged, mean of 2 arrays, mostly near background
Residues (chain): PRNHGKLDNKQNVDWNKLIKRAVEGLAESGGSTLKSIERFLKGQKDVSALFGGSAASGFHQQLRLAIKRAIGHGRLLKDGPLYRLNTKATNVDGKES
AGCAAACA: -0.00189
ATAACGCA: -0.0155
CCAAGCTC: 0.0734
GTTATAAA: 0.0725
GAGCTCTA: -0.0632
ATAGAATC: -0.00466
CGAGTAAG: 0.0742
CCTTGTGA: 0.164
ATGCCCCG: 0.0486
AGAAAGGC: 0.101
TGCGGCCA: 0.126
AGCGCGCG: 0.208
ATGTTGCC: -0.126
CGTTGGTA: 0.102
GTGGAATA: -0.0857
CGGTTTCA: -0.0067

Mixed results
PhoQ, residues 284 288 289 292 302 303 HSSMNL — fold induction (PhoP, residues 12 14 15 18 19 NFFVT (Escherichia coli, UniProt P23836); Sort-seq, measured: YFP reporter; E. coli; PhoQ-PhoP variant library, together with: 10 µM Mg2+; baseline: high Mg2+ state, higher = stronger signaling): 1.05
